Assay results of several laboratories.
A part holds a random share of what one study measured.

Study 1 — method: protein-binding microarray; form: double-stranded DNA, one strand shown; sample: in vitro; tested at: not given; reading: higher = stronger binding
Target: Protein max, full length (MAX, Homo sapiens, UniProt P61244-2, residues 1-151)
Setting: k-mer, scored over probes, only values ≥0.25
`CCCCGTGC` has an E-score of 0.415.
`CATGTCCC` gave an E-score of 0.265.
For `CGCGTGTA`, the E-score was 0.451.
For `ACCATGAG`, the E-score was 0.377.
For `CATGCGAG`, the E-score was 0.337.
`CGTGTGGC` gave an E-score of 0.351.

Study 2 — method: protein-binding microarray; form: double-stranded DNA, one strand shown; sample: in vitro; tested at: 250 nM; setting: 60-bp whole probe; together with: salmon DNA 0.4 mg/ml; reference: random background probes; reading: higher = stronger binding; all sequences stand within: GCCTAGCAC … GTCTTGATTCGCTTGACGCTGCTG
Target: Interferon regulatory factor 5, full length, phosphomimetic (IRF5, Homo sapiens, UniProt Q13568-2, residues 1-514, K96S/S451D/S453D/S456D/S462D)
`GACGGAGTGCTTCTCCTGACGTGCTAG` has a log fluorescence of -0.412 z-score.
`AACGATTTCAGTCTCGAGACGTGCTAG` gave a log fluorescence of 1.67 z-score.
With `TCATGTGTCAACTTTCTCACTGTGCTA` the log fluorescence was 0.793 z-score.
`TTAGGTCTCGGGCTGGGTTAGTGCTAG` has a log fluorescence of -0.312 z-score.
`TTAGGCCTCCTTTTCCTTTAGTGCTAG` gave a log fluorescence of 0.118 z-score.

Study 3 — method: protein binding microarray; form: double-stranded DNA, one strand shown; sample: in vitro; tested at: not given; reference: not given; reading: higher = stronger binding
Target: Histone acetyltransferase KAT6A, winged helix 1, GST fusion (KAT6A, Homo sapiens, UniProt Q92794, residues 1-85)
Setting: 8-mer, flanks averaged, mean of 2 arrays, mostly near background
Construct (chain): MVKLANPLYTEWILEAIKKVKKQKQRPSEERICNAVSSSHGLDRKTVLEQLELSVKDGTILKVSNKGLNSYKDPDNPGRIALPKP
The E-score of `GTACGGAA` is reported as 0.26.
The E-score of `GGCATACC` is reported as 0.0111.
The E-score of `AGTACGAC` is reported as -0.029.
For `GTGGCAAA`, the E-score was -0.182.

Single results of other studies
`PhoQ, residues 284 288 289 292 302 303 ASASEQ` gave a fold induction of 2.05 (PhoP, residues 12 14 15 18 19 GMGLL (Escherichia coli, UniProt P23836); Sort-seq, measured: YFP reporter; E. coli; PhoQ-PhoP variant library, together with: 10 µM Mg2+; reference: high Mg2+ state, higher = stronger signaling).

A few entries again (study 2):
`GACGGAGTGCTTCTCCTGACGTGCTAG` has a log fluorescence of -0.412 z-score.
`TTAGGCCTCCTTTTCCTTTAGTGCTAG` gave a log fluorescence of 0.118 z-score.
